# Experimental data from different studies.
# Compare with care: the assays were run in different laboratories.
# Sequence of UniProt Q9NUW8 (whole entry, looked up): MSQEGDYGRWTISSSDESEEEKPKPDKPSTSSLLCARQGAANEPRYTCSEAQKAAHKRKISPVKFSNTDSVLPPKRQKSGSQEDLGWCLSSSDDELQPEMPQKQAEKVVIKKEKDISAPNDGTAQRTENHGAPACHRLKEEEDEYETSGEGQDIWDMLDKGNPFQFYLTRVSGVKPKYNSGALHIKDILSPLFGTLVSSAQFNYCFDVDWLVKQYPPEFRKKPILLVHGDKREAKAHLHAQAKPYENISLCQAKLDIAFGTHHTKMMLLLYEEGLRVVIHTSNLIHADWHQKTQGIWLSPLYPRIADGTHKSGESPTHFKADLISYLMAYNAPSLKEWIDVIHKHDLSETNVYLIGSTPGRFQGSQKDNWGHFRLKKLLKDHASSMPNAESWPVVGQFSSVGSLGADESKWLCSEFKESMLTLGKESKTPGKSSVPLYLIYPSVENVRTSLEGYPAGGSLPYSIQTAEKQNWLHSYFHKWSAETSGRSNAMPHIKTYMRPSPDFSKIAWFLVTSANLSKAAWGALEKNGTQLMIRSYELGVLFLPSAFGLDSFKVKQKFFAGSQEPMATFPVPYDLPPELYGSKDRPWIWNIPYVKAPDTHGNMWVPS
Structure (SMILES),target or system,assay,test system,setting,how to read,endpoint,result
Cc1ncsc1-c1ccc(C(C)NC(=O)C2CC(O)CN2C(=O)C(NC(=O)CCCCCCCCCCN2CCCC(Nc3ncc(Cl)c(Nc4ccccc4S(=O)(=O)C(C)C)n3)C2)C(C)(C)C)cc1 (stereo not shown),22Rv1,"RNA-seq, measured: ZSCAN31 mRNA",,concentration not given,reference: DMSO,log2 fold change,-2.6
COC1CN([C@H]2CC[C@H]([C@@]3(C)Oc4c(Cl)cc(C(=O)NCc5c(SC)cc(C)[nH]c5=O)c(C)c4O3)CC2)C1,,"RNA-seq, measured: PGLYRP1","human, whole blood","dose not given, 24 h",reference: pretreatment baseline,log2 fold change,1.07
Cc1cc(NC(=O)[C@H](O)c2cc(F)cc(F)c2)ccc1-c1cnc(N)c(C(=O)NC(C)C)c1,,,"female nude mouse, plasma","oral, 30 mg/kg, single dose",,half-life,162 min
COc1cccc2c(N3CCC(CCP(=O)(O)O)CC3)ncnc12,,,"female C57BL/6 mouse, serum","subcutaneous, 100 mg/kg",,half-life,60 min
CN(C)C(=O)c1cccc(N2Cc3cn(Cc4ccc(F)cc4Cl)nc3C2)c1,,metabolic stability,"rat, liver microsomes",,,half-life,37 min
COc1cccc(OC)c1-c1cc(C(=O)NC2(C(=O)O)C3CC4CC(C3)CC2C4)nn1-c1ccc(C(=O)NCCNC(=O)[C@H](CCCCNC(=O)[C@H](CC(C)C)NC(=O)C2OC2C(=O)O)NC(=O)CN2CCN(CC(=O)[O-])CCN(CC(=O)[O-])CCN(CC(=O)[O-])CC2)cc1C(C)C.[177Lu+3] (mixture of isomers),HT-29 tumour model,,"host not given, pancreas","7 days, tumour-bearing",,tracer uptake,0.21 %ID/g
Cn1ccc(-c2cc(Cl)c(Cl)c3[nH]c4c(c23)CN(C(=O)CO)CC4)n1,,,"C57BL/6 mouse, blood","intravenous, 0.5 mg/kg",,half-life,36.1 min
CN(C)C(=O)c1cccc(N2Cc3cnn(Cc4ccc(F)cc4)c3C2)c1,,metabolic stability,"rat, liver microsomes",,,half-life,8 min
C=C(NC(=O)c1csc(-c2nc3c(cc2O)-c2nc(cs2)C(=O)NC(C(C)O)C(=O)NC(=C(C)OC)c2nc(cs2)C(=O)NC2c4nc(cs4)C(=O)NC(COC(=O)c4c5c6c(cccc6n4O)COC(=O)C(OC4CC(C)(O)C(N(C)C)C(C)O4)C2OC5)c2nc-3cs2)n1)C(N)=O (stereo not shown),,,"ICR mice, Streptococcus pneumoniae ATCC 49169 infected, immunocompromised, blood","intravenous, 16 mg/kg/day twice daily",,half-life,505 min
O=C(O)c1ccc(Nc2c(-c3ccccc3)nc3ccc(CON=Cc4sccc4Oc4ccccc4)cn23)cc1,"TDP1 (Homo sapiens, UniProt Q9NUW8)","enzyme activity, inhibitor",,"100 µM, unpurified compound",,inhibition,93.3%
CN(C)C(=O)c1cccc(N2Cc3cn(Cc4cc(Cl)cc(Cl)c4)nc3C2)c1,,metabolic stability,"rat, liver microsomes",,,half-life,22 min
COc1cnc2cccc(N3CCc4c(cc(Cn5ccnc5)cc4-c4cn(C)nc4C(F)(F)F)C3=O)c2c1,,,"male CD-1 mouse, plasma","oral, 50 mg/kg",,half-life,96 min
Cc1ccc(CNc2nc3c(cnn3C(C)(C)C)c(=O)n2Cc2cccc(F)c2)cn1,,metabolic stability,"rat, liver microsomes",,,half-life,2.2 min

# Some of these lines once more:
Structure (SMILES),target or system,assay,test system,setting,how to read,endpoint,result
COc1cccc(OC)c1-c1cc(C(=O)NC2(C(=O)O)C3CC4CC(C3)CC2C4)nn1-c1ccc(C(=O)NCCNC(=O)[C@H](CCCCNC(=O)[C@H](CC(C)C)NC(=O)C2OC2C(=O)O)NC(=O)CN2CCN(CC(=O)[O-])CCN(CC(=O)[O-])CCN(CC(=O)[O-])CC2)cc1C(C)C.[177Lu+3] (mixture of isomers),HT-29 tumour model,,"host not given, pancreas","7 days, tumour-bearing",,tracer uptake,0.21 %ID/g
